# Measured values from different studies.
# Each numbered part is a random draw from the data of one study; scales do not carry over between parts.
# Sequence of UniProt P14921 (whole entry, unmodified, looked up): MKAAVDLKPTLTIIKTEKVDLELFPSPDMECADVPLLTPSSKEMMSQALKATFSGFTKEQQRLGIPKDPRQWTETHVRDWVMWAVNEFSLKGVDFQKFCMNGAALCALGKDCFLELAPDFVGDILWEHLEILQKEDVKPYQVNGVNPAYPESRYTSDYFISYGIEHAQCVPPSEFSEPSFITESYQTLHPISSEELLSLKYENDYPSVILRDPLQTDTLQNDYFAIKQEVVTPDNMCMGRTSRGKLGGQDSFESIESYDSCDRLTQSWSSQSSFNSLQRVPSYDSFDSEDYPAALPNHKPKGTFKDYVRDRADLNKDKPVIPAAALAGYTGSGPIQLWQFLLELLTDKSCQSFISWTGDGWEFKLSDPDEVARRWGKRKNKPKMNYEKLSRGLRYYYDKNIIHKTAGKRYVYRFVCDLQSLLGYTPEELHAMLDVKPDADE

# Study 1 — method: protein-binding microarray; form: double-stranded DNA, one strand shown; matrix: in vitro; tested at: 250 nM; notes: 60-bp whole probe; with: salmon DNA 0.4 mg/ml; baseline: random background probes; reading: higher = stronger binding
# Target: Interferon regulatory factor 5, full length, phosphomimetic (IRF5, Homo sapiens, UniProt Q13568-2, residues 1-514, K96S/S451D/S453D/S456D/S462D)
Strand,log fluorescence [z-score]
GCCTAGCACGACGGTATCCTTTTCCTCACGTGCTAGGTCTTGATTCGCTTGACGCTGCTG,0.682
GCCTAGCACTTAGATATCGGGACTCGATTAGTGCTAGTCTTGATTCGCTTGACGCTGCTG,1.12
GCCTAGCACGACGGTATCGTCTATCGGGACGTGCTAGTCTTGATTCGCTTGACGCTGCTG,1.66

# Single results of other studies
# TARDBP full length, His tag: TAR DNA-binding protein 43, full length, His tag (TARDBP, Homo sapiens, UniProt Q13148, residues 1-414)
Molecule,target,assay,test system,conditions,scale,measurement,value
CAUACG,"TARDBP full length, His tag",RNA Bind-n-Seq,"RNA, in vitro","20 nM, 6-mer, flanks averaged, single round, with: 150 mM LiCl","baseline: input library, higher = stronger binding",6-mer enrichment (R),0.811
CGACAACA,"Protein C-ets-1 (ETS1, Homo sapiens, UniProt P14921, residues 1-441, Y397A, full length assumed)",protein-binding microarray,"double-stranded DNA, one strand shown, in vitro","not given, k-mer, scored over probes, only values ≥0.25",higher = stronger binding,E-score,0.378
AGGGCG,"TARDBP full length, His tag",RNA Bind-n-Seq,"RNA, in vitro","20 nM, 6-mer, flanks averaged, single round, with: 150 mM LiCl","baseline: input library, higher = stronger binding",6-mer enrichment (R),1.09
"PhoQ, residues 284 288 289 292 302 303 ASSHFY","PhoP, residues 12 14 15 18 19 LHTVL (Escherichia coli, UniProt P23836)","Sort-seq, measured: YFP reporter",E. coli,"PhoQ-PhoP variant library, with: 10 µM Mg2+","baseline: high Mg2+ state, higher = stronger signaling",fold induction,65.4
GCGACU,"TARDBP full length, His tag",RNA Bind-n-Seq,"RNA, in vitro","20 nM, 6-mer, flanks averaged, single round, with: 150 mM LiCl","baseline: input library, higher = stronger binding",6-mer enrichment (R),0.897

# A few entries again (study 1):
Strand,log fluorescence [z-score]
GCCTAGCACGACGGTATCGTCTATCGGGACGTGCTAGTCTTGATTCGCTTGACGCTGCTG,1.66
